Measurements gathered from unrelated publications.
Parts stem from different laboratories: compare values within a part only. Positions count from the first letter of the parent shown.

Block 1
Target: CCNA2, cyclin fold, Cln2 fusion (human)
Technique: yeast growth competition, sequencing
Medium: yeast
Setting: strong parent motif
Baseline: not given
Direction: higher = stronger binding
Starting sequence: PKMYT1 docking peptide (human); SFEPRNLLSLFED; partner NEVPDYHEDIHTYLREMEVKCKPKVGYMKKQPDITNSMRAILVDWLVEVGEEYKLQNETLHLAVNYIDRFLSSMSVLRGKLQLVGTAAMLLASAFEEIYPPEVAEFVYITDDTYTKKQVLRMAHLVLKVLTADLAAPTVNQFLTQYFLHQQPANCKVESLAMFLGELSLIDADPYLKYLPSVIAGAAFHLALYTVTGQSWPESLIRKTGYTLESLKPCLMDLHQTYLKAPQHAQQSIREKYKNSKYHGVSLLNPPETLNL
Variant | normalised enrichment score
E12Y | 2.2
E3T | 3.27
P4F | -0.738
S9L | 1.91
P4E | -0.918
F2H | 0.649
S9P | 3.91
L10A | 2.58
S9Y | 2.3
L7Q | -1.25
L8S | 1.75
L10F | 1.81
E12S | 1.4
N6S | 2.96
L10K | 1.91
D13P | 2.5
N6A | 1.52
E3V | 4.56

Block 2
Target: ABI1, truncated, D143A, DHFR fusion (Arabidopsis thaliana)
Technique: DHFR PCA, deep sequencing
Medium: yeast
Setting: methotrexate growth selection, single substitutions
Together with: (+)-ABA 0.39 µM
Baseline: wild-type fitted maximum
Direction: higher = stronger binding
Starting sequence: PYL1, truncated, DHFR fusion (Arabidopsis thaliana); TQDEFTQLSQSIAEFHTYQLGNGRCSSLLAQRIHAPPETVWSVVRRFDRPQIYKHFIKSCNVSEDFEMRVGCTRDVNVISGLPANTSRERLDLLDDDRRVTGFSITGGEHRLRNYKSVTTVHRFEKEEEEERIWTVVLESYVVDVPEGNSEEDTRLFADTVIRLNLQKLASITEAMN
Variant | relative binding score [%]
W41R | 6.22
I105C | -6.55
N22V | 50.4
E125L | 31.8
R74Q | -4.13
V100H | -11.9
Q167K | 59.8
L138S | 0.923
M176P | 13
H16S | 3.22
D153E | 56.8
S63Q | 37.6
I33Y | -1.38
I133M | 40
T119L | 6.71
E152Q | 32.7

Block 3
Target: Histone acetyltransferase KAT6A, winged helix 2, GST fusion (KAT6A, Homo sapiens, UniProt Q92794, residues 85-181)
Technique: protein binding microarray
Form: double-stranded DNA, one strand shown
Medium: in vitro
Tested at: not given
Setting: 8-mer, flanks averaged, mean of 2 arrays, mostly near background
Baseline: not given
Direction: higher = stronger binding
Construct (chain): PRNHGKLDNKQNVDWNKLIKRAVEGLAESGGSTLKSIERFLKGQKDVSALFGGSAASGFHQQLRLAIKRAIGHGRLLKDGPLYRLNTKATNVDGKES
Strand | E-score
GACCGGAC | 0.0417
GACCTTAA | -0.0423
AATTCACC | 0.0835
AACGCGAG | -0.0411
AATGGAGC | 0.0527
CAGCGATC | 0.0133
AAAAGGTT | 0.0315
TCAAAACA | 0.151
AACACCTC | -0.22
AGATTCTG | 0.0551

Block 4
Target: Sal-like protein 4, full length isoform A (SALL4, Homo sapiens, UniProt Q9UJQ4, residues 1-1053)
UniProt Q9UJQ4, sequence (whole entry, looked up): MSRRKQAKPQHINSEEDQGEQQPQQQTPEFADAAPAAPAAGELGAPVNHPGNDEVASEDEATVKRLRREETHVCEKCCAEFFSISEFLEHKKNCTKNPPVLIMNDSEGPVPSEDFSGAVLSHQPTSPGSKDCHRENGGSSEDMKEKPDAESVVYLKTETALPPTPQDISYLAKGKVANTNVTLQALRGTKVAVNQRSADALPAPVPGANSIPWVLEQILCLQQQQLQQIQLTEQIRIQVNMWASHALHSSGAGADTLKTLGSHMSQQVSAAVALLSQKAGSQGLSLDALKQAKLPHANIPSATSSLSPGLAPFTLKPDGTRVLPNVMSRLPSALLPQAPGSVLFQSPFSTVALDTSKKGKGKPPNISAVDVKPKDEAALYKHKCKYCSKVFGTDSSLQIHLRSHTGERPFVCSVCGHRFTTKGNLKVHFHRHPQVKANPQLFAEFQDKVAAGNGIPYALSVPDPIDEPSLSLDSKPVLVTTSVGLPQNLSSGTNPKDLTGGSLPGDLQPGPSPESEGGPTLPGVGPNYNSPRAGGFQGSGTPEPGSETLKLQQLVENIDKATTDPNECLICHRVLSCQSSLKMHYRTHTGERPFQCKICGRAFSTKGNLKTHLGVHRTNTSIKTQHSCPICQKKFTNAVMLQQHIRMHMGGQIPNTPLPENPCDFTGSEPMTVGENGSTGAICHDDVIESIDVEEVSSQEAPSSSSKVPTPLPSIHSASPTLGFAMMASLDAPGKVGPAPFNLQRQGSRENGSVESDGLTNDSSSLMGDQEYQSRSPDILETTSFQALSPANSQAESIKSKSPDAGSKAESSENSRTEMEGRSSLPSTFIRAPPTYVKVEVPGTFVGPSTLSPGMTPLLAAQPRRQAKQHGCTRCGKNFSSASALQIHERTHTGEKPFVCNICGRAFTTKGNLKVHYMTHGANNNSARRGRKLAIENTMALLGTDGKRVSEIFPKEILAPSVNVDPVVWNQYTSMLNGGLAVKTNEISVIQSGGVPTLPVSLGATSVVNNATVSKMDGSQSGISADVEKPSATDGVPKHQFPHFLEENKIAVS
Technique: universal PBM
Form: double-stranded DNA, one strand shown
Medium: in vitro
Tested at: 600 nM
Setting: 8-mer, flanks averaged, mean of replicates
Direction: higher = stronger binding
Strand | E-score
GTTTACGA | 0.0471
AACGGTTA | 0.00865
CACCCTTA | -0.0785
TGAACACA | 0.137
TTGGAAAA | 0.266
CCATCCTC | -0.169
AACCTGGA | -0.0392
GGTGTGCA | -0.255
AAGTGAGC | -0.151
AATCGGCG | -0.257
ACTCGATC | -0.117
CTGCTCTA | 0.0835

Block 5
Target: Centromere-binding protein 1, full length, His-tagged (CBF1, Saccharomyces cerevisiae, UniProt P17106, residues 1-351)
UniProt P17106, sequence (whole entry, looked up): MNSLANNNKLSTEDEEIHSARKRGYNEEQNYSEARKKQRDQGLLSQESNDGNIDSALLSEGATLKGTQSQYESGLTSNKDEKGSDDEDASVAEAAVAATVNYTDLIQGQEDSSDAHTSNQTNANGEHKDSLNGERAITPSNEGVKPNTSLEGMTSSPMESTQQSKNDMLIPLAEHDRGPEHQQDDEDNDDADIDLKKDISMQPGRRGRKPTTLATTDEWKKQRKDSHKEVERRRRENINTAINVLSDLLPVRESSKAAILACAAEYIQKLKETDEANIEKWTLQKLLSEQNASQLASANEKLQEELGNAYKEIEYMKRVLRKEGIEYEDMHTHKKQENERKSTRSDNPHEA
Technique: competition protein-binding microarray
Form: double-stranded DNA, one strand shown
Medium: in vitro
Tested at: 2 µM
Setting: whole 60-bp probe, lowest competitor level
Together with: Pho4 competitor, 0.05 µM
Direction: higher = stronger binding
Strand | fluorescence intensity [a.u.]
AAATCTTTGGTTGACAACATGATAACTGGTGTCCCCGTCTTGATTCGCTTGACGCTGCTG | 71.5
CTTCTGTAAATTTTTCACGTGACTTGACGCGCCCCGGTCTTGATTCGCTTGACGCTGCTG | 6040
GTCTTGTCTCATTGGGATGTGGGTGTCCCCACTTCAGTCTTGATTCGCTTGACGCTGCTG | 92.2
CGCTTGTACAAGCTGAACGTGAGAAGCAACGATCCTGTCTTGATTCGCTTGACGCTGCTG | 87.1
CAAAGAACATCAAGGCTCGTGTTGGTTCTCTACCAGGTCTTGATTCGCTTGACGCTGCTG | 76.4
GCAGCTCTTTTATTTCACGTGTTCCGGTTTCCCTCTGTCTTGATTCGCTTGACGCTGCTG | 1170
CTAGGCGGGATCTGGCCCGTGGAACTCGTATGGAATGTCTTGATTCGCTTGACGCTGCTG | 57
CGGGGTTAAGTTTGTAGGGTGGGTGGCTTGCAGCAGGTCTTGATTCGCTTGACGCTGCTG | 67.8
GACTCCATCTGGGCACAACTGGGTTAGTGGTCAAGGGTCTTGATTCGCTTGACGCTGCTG | 54.5
TTTCATAGAAACAAATCCGTGATGGTTTAATGGTCAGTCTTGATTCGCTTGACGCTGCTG | 87.1
TGCGCAACAACTTTTCACGTGTGATTATGTCTAGAAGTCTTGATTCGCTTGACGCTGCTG | 800
CCGACGTTGGCTTATTATGTGACGGATTGTTTTCAGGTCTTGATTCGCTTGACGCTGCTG | 73.9

Block 6
Target: RNA binding protein fox-1 homolog 2, RRM domain, GST-SBP tag (RBFOX2, Homo sapiens, UniProt O43251-10, residues 100-194)
Technique: RNA Bind-n-Seq
Form: RNA
Medium: in vitro
Tested at: 365 nM
Setting: natural RNA segment, single round, ends assumed
Baseline: no-protein control
Direction: higher = stronger binding
Target sequence (chain): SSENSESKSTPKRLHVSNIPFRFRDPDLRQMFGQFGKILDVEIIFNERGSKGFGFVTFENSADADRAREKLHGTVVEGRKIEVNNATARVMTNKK
Strand | RBNS enrichment (R)
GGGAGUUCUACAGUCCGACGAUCAGCUGAGGCUGAUCCAGCUCCCCUGAAAUUCAGAGUGUUAACUUUGUAGACCCUGCACAAUCUCUUGGUGCUAUCUAGCCAUUACCCCCAUUUUUUUUUUAAAGGCCAUCUGGAAUUCUCGGGUGCCAA | 0.678
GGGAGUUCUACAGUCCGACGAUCUUCAAGUAGGAAAUUUUAAUUUAAAAUUAUUUUGCCACUAUAAAAUUUUAUUUUAAAUUUAUUUUUAAAUAAAAGAAAUGAUAAGAGAAAUAAUAUUGACAAAGUGAUUCUGGAAUUCUCGGGUGCCAA | 1.55
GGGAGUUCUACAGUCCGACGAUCGCUGACCUCAGGGCCUGACAGUGUGGGACAGGCUCUUCUUUCCCAAAAUUAGGGAGCUCUUGACAGAAAGCAGUUCUGAUGCUUACAUCUGGAAUCUGAGGCAUCCUCUGUGGAAUUCUCGGGUGCCAA | 0.359
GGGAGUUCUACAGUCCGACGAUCGUCCCUAUAACUGGGGUUAUCUGACCAUCCAUCUCCCUUCUUUGUUCUGCUUUCUGUUCGGGGUGCCCUUCACUUAAUUGCCUUACUGGCUGGCUGACGGCAGGGGAGUGUGGAAUUCUCGGGUGCCAA | 0.834
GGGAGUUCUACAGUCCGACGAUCAAAUGUGCUGUUUUGUAUAAAGCAUGAUAAUUACUUUUUAACAGAAGUUCAUUUUUAAAGAUUACUCCCUUUUCUUUCUCUCUUUUUUUUGAGACAAUUUCUCUCUUGUUUGGAAUUCUCGGGUGCCAA | 3.63
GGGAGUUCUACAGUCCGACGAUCCUACUUGGGAGGCUGAGGCAGGAGAAUCGCUUGACUCCAGGAGGCGCAGGCUGCAGUGAGCUCUGAUGGUACCACUGCACUCCAGCCUGGGUGACAGAGCGAGACCCUGUUGGAAUUCUCGGGUGCCAA | 0.335
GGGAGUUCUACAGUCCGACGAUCGGAUUUGUGUAGGCUGUAUUCCAGUUGGCUUUUUAGUAAUAGAAAUCCCUCAUAUGAUGUAUCAGAUACAAUUGAGGUUCUAAUCUAGUCUGUUAAUUUAUCUGAAAUUGUGGAAUUCUCGGGUGCCAA | 0.681
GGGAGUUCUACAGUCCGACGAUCGUGAUGCGGGAGGCUCACAAACUUACAAAUCCAACUUUUAUUCUGAGGAACUUACUGUACAAUAUCUAAAAAGAAAGUCACUGGGGAAAACCUUUCCUCCUUCCUCCCUCUGGAAUUCUCGGGUGCCAA | 0.356
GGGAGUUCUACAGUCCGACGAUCCCUCAGGAGCGUCAGGAUCAUUUUCAACUCUGGUUAGGCCUCCUACCUGGGGAGGCCAGGUCACUGCACUGGGAGGUCCUGGCUGCUGCGAAGCUGGAGGAGGACUGCGUUGGAAUUCUCGGGUGCCAA | 0.268
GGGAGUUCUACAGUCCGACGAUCCUCGUCACAAAUGCCAAACUGACUGCUCUUUCCCAGUGCCCAGUGCUGUCUUUUGCUUCUGUUUGAUUUGGUCUGCGUAUCUUUUAAUGUGUCUGUUUUGUUUUGUUUGUUGGAAUUCUCGGGUGCCAA | 2.21
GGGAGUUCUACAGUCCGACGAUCAGUUACGUCAAACAUACAUCUCAAUAUUUCUUAAGAAGCAAACGGGGGCACCAGUCUUGGCUUUUAGGAAGCUCUGUUUAACUUACACAUAAGUUCUUAAGAUGUGUUGGUGGAAUUCUCGGGUGCCAA | 0.437
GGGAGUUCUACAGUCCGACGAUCGCACCGCUUCCUGGUCUAUUUGCAGAGGUGGUACCCCUCGCUGCCUCCAGGAGAGAGCGCUCCAGGUACUCUACCGACUGAGACAGGUCCCAAGCCCUAACAGGCCUUCAUGGAAUUCUCGGGUGCCAA | 0.421

Other studies, line by line
Technique: cross-linking MS
Substance | partner | system | conditions | endpoint | value
P4HB (Homo sapiens, UniProt P07237) | ARMCX4 (Homo sapiens, UniProt Q5H9R4) | cell fractions | together with: DMTMM | cross-linked residues | D83 to K189
PGRMC1 (Homo sapiens, UniProt O00264) | BCAP31 (Homo sapiens, UniProt P51572) | cell fractions | together with: DMTMM | cross-linked residues | D86 to K148
HSPD1 (Homo sapiens, UniProt P10809) | ATP5F1A (Homo sapiens, UniProt P25705) | – | hits only | interaction screen | cross-linked
HNRNPA2B1 (Homo sapiens, UniProt P22626) | HNRNPD (Homo sapiens, UniProt Q14103) | – | hits only | interaction screen | cross-linked

A few entries again (block 4):
Strand | E-score
CTGCTCTA | 0.0835
AATCGGCG | -0.257
TGAACACA | 0.137
GGTGTGCA | -0.255
ACTCGATC | -0.117
AACGGTTA | 0.00865
AACCTGGA | -0.0392
GTTTACGA | 0.0471
CACCCTTA | -0.0785
TTGGAAAA | 0.266
